Published values collected from several papers.
Several values in a cell are separate wells, animals, samples, runs or records.
Organism: Escherichia coli
B1: chain MTPELNWRHEFGEIRVTFSIFNRFWLNWMDRSDRIIMIAQMHYTVAVVGSEAGRSLFAPPAY

For `polymyxin B`, the MIC was 0.06 µg/mL (broth microdilution; ATCC 25922; various colistin salts).
For `Triton X-100`, the FIC index was 1 (potentiator, checkerboard; tet efflux pump expressing; 1700 µM, with: tetracycline).
`polymyxin B` gave an MIC of 1 µg/mL (broth microdilution; ATCC 25922, Mueller-Hinton broth; 24 h, 37 °C).
With `benzalkonium chloride` the MIC was over 640 µM (two-fold serial dilution; ATCC 8739; dark or light not distinguished).
For `Polymyxin B`, “inhibition zone diameter” read 14 mm (CGMCC 1.9; concentration not given, 18 h, 37 °C).
For `Polymyxin B`, “fold MIC shift” read 0.5 (ATCC 25922; baseline: 5% CO2 over ambient air).
`colistin` has a tetracycline MIC of 450 µM (checkerboard; tetracycline-resistant (pBR322); 0.0156 µM, with: tetracycline).
For `MTPELNWRHEFGEIRVTFSI`, “log fold change” read 4.64 (bacterial growth; peptide, DH5α; concentration not given; baseline: with over without arabinose induction).
With `colistin` the bacterial load was 8.44 log CFU/g and 7.86 log CFU/g and 7.79 log CFU/g and 8.57 log CFU/g and 7.81 log CFU/g (ATCC 25922, female ICR mice, subcutaneous infection, infected skin; dose not given).
`Polymyxin B` — result for “MIC fold change”: 2 fold (ATCC 25922; concentration not given, with: NaCl 150 mM; baseline: no added salt).
The MIC of `colistin` is reported as 0.125 to 0.5 µg/mL (broth microdilution; ATCC 25922; susceptible reference strain).
`B1`: “log fold change” 3.78 (bacterial growth; DH5α; concentration not given; baseline: with over without arabinose induction).
`polymyxin B` has an MIC of 0.7 µg/mL (ATCC 25922).
With `colistin` the MIC was at most 0.5 µg/mL (broth microdilution; clinical isolate RKI-No_515/16).
The viable count of `gentamicin` is reported as 2.47 log CFU/mL (time-kill; 1 x MIC, 30 min).
For `MTPELNWRHEFGEIR`, the fold change was 18.9 (bacterial growth; peptide, DH5α; concentration not given, 37 °C; baseline: with over without arabinose induction).
For `Polymyxin B`, “inhibition zone diameter” read 18 mm (ATCC 25922; 250 µg per disc, 24 h, 37 °C).
For `gentamicin sulfate`, the MIC was 0.125 µM (ATCC 25922; 18 h, 37 °C, with: LED light 1.57 mW, 10 min).
